Assay results gathered from unrelated publications.
Parts stem from different laboratories: compare values within a part only.
Sequence of UniProt O60285 (whole entry, looked up): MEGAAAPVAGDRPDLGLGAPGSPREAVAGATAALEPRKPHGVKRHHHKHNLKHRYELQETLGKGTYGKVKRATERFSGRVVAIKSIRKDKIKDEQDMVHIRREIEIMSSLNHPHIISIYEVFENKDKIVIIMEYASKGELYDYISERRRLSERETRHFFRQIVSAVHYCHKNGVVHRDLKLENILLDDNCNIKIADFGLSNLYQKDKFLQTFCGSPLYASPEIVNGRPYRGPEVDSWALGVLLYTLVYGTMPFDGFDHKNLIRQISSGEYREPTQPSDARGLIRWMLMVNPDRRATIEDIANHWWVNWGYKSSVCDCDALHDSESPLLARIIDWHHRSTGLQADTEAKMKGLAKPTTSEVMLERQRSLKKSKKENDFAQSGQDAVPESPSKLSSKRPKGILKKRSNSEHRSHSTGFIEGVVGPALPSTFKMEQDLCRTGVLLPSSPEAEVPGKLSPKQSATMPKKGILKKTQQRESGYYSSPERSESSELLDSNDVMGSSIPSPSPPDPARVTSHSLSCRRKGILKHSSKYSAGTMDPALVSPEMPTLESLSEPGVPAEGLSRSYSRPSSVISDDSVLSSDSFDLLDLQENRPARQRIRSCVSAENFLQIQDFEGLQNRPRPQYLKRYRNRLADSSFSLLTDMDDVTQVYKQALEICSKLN

Study 1
Target: Protein C-ets-1 (ETS1, Homo sapiens, UniProt P14921, residues 1-441, full length assumed)
Sequence of UniProt P14921 (whole entry, looked up): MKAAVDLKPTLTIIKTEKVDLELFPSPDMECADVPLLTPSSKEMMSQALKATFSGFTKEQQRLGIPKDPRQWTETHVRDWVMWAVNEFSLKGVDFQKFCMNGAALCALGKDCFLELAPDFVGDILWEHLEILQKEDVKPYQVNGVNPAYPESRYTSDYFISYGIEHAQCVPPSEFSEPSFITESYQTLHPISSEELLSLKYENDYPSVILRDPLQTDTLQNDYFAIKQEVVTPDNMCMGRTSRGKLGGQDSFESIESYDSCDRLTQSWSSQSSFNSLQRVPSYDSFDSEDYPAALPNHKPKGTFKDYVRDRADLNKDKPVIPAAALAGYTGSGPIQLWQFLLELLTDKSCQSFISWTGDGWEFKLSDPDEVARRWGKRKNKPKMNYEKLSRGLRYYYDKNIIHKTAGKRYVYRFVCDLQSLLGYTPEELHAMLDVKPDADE
Method: protein-binding microarray
Molecule type: double-stranded DNA, one strand shown
Medium: in vitro
Tested at: not given
Setting: k-mer, scored over probes, only values ≥0.25
Reading: higher = stronger binding
Sequence | E-score
TCCGGTAA | 0.467
GCCGGAAC | 0.453
CCGGTTCG | 0.296
CGGAAAGC | 0.37
CGATTTCC | 0.405
TACTGGAA | 0.273
GACATCCA | 0.297
CGGAATTC | 0.334

Study 2
Target: RING finger protein unkempt homolog, zinc fingers 1-6, GST-SBP tag (UNK, Homo sapiens, UniProt Q9C0B0, residues 30-357)
Sequence of UniProt Q9C0B0 (30-357, looked up): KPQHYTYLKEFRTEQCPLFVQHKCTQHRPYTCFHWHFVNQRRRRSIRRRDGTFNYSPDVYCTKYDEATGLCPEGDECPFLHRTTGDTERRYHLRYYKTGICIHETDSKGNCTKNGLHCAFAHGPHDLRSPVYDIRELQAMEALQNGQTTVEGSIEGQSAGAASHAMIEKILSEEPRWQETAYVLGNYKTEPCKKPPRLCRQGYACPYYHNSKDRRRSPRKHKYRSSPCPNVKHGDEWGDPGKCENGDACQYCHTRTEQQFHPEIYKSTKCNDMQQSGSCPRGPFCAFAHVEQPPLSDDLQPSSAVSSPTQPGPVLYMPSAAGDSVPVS
Method: RNA Bind-n-Seq
Molecule type: RNA
Medium: in vitro
Tested at: not given
Setting: RNA with constant flanks, human-mouse chimeric sites, ends assumed
Relative to: input RNA pool
Reading: higher = stronger binding
All sequences stand within: GGGAGUUCUACAGUCCGACGAUC … CAACAGAGGAUUGAGCAUCA
Sequence | bound/input enrichment [ratio]
GCUCUUGGGAAUGUAAUCAGCGCCUUGGGGGACAAGAGCAAGAGGGCCACCCAUGUCCCUUACAGAGACUCUAAGCUGACAAGACUCCUACAGGAUUCCCUUGGGGGUAACAGCCAAACC | 0.209
CCCUCCCCGGGCCACCCACCCCUCCCGGCUCCCCGCCAGAGCAAGGUUUUCUUCUUAUUUCAUAGCAAAUAAGAAAAAUGUUCUACGCACAUUUUGUCCUCAGUAAACGAGGGCCUCUGG | 0.661
UCUUUGUGUAACUUAUCUGUAAAAGGUGUUUCUCCCUUACUGUCAAAAAAUAUGCAUGUAUAGUAAUUAGGACUUCAUUCCUCCAUGUUUUCUUCCCUUAUCUUACUGUCAUUGUCCUUA | 0.735
GUACUGCAGCAGCAGGGAAAACUGCAGGAAGCACUGAUGCAUUAUAAGGAGGCUAUUCGAAUCAGUCCUACCUUUGCUGAUGCCUACUCCAAUAUGGGAAACACUCUAAAGGAGAUGCAG | 0.247
UUAAUCCCCUUUACUGCUCCCCCACUUGUCAUGCUGAUGACAAAAACUUAUAUCCCCGUCCUAGCUUUCACUCAGAUGGCUUAUGGAGCCGGUUUCCUAGCUUUCUUGGGAGGGAUCAGA | 0.264
UUACCCGAGAACGAGGAUGAGCUGGAGAGCACCAACAGGCGCUACACCAAGAGGGACUGCAGCACUUUCCUCAGAACUAGCGAGACGGGCAUUGUGGACCAGGUCAUGGUCACUCUCAAC | 0.118
CCCCAAUACCAUUUGCAGGUCUGGAACUGCACUCUCUUUUUUAAAAAACAUGUAUACAUUUUAGGGCUGUAGAUUUAUUUUCCUGGUUUCUUUUCCAUUGCUUAUUCUUUGAGCACAGAA | 2.13
CUCAUGGCUGCAGAAACAGGAAGUGGAAAAACUGGUGCUUUUAGUAUUCCCGUUAUCCAGAUAGUUUAUGAAACUCUGAAAGACCAACAGGAAGGAAAGAAAGGGAAAACAACUAUUAAA | 0.736

Study 3
Target: POU domain, class 5, transcription factor 1, POU domain (Pou5f1, Mus musculus, UniProt P20263, residues 131-289)
Sequence of UniProt P20263 (131-289, looked up): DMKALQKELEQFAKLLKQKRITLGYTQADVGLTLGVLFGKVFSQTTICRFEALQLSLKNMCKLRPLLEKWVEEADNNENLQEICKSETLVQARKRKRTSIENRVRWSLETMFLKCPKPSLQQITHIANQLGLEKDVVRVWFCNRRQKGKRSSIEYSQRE
Method: Spec-seq
Molecule type: double-stranded DNA, one strand shown
Medium: in vitro
Tested at: not given
Setting: whole probe, mean of replicates
Relative to: not given
Reading: lower = stronger binding
All sequences stand within: GAGTCGTCTCGTCAGCAC … CCGTAGAGCACTCAGGTC
Sequence | relative binding energy
ATTGGGAT | 0.631 ln ratio
ATAGTCAT | 0.43 ln ratio
ATTGCCAT | 0.444 ln ratio
ATGCGCAT | 0.0743 ln ratio
ATGCCGGG | 0.828 ln ratio
GAGATAAT | 0.457 ln ratio
ATCCGGAT | 0.819 ln ratio
ATGCGTCT | 0.244 ln ratio

Further values, each from its own experiment
SMILES | target | read-out | mode | tested at | relative to | measurement | value
O=C(Nc1ccc(Cl)cc1)c1ccccc1NCc1ccncc1 | NUAK family SNF1-like kinase 1 (NUAK1, Homo sapiens, UniProt O60285) | enzyme activity | inhibitor | 0.5 µM | control | remaining activity | 96.5%

Some of these lines once more (further values, each from its own experiment):
SMILES | target | read-out | mode | tested at | relative to | measurement | value
O=C(Nc1ccc(Cl)cc1)c1ccccc1NCc1ccncc1 | NUAK family SNF1-like kinase 1 (NUAK1, Homo sapiens, UniProt O60285) | enzyme activity | inhibitor | 0.5 µM | control | remaining activity | 96.5%
